Experimental data gathered from unrelated publications.
Each line is one published result; not all experiments were run side by side. “And” joins repeats or separate records; there may be more than shown.
rep main protease: Replicase polyprotein 1ab, main protease (rep, Severe acute respiratory syndrome coronavirus 2, UniProt P0DTD1)
Spike glycoprotein: Spike glycoprotein (Severe acute respiratory syndrome coronavirus 2, UniProt P0DTC2)
UniProt P78348, sequence (whole entry, looked up): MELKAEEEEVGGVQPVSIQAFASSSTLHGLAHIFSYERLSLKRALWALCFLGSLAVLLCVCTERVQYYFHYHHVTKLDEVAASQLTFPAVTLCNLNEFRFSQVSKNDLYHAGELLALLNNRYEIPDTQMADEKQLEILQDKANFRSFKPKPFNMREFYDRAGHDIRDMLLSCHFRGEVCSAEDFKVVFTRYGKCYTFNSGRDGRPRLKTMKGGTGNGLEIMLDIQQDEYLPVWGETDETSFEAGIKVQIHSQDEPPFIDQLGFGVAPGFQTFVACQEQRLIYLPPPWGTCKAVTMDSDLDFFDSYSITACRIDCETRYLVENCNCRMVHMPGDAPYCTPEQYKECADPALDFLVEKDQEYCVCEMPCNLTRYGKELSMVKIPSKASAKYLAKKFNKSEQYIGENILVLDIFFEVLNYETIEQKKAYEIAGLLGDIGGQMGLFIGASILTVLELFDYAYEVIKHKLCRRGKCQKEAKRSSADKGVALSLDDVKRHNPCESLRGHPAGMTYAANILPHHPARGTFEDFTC
UniProt Q7BQ98, sequence (whole entry, looked up): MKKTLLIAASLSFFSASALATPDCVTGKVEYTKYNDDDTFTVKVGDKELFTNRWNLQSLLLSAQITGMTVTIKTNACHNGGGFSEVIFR

| Compound | tested on | assay | system | conditions | scale | endpoint | value |
| --- | --- | --- | --- | --- | --- | --- | --- |
| C[C@H](NC(=O)c1[nH]nc2nc[nH]c(=O)c12)[C@@H]1CCN(C(=O)c2cc(-c3ccccc3)ccn2)C1 | rep main protease | enzyme activity, inhibitor | – | 5 µM, run 2 | – | inhibition | 15.2% |
| Nc1ncnc2c([C@@H]3N[C@H](CO)[C@@H](O)[C@H]3O)c[nH]c12 | Severe acute respiratory syndrome coronavirus | viral replication, inhibitor | Vero 76 | 29.6 µM | – | inhibition | 7.4% |
| CC(C)(Nc1nc(N2CCNCC2)nc2ccccc12)c1ccccc1 | SARS-CoV-2 | cytopathic effect, cell-based CPE | USA_WA1/2020 | round 2, 5-point dilution | – | AC50 | 11.2 µM |
| O=C(/C=C/c1ccc(O)c(O)c1)O[C@H]1[C@H](O)C[C@](O)(C(=O)O)C[C@H]1OC(=O)/C=C/c1ccc(O)c(O)c1 | Spike glycoprotein | binding, biolayer interferometry | – | – | – | kon | 178 M⁻¹ s⁻¹ |
| C[C@@H]1CC[C@]2(C(=O)O)CC[C@]3(C)C(=CC[C@@H]4[C@@]5(C)CC[C@H](O)C(C)(C)[C@@H]5CC[C@]43C)[C@@H]2[C@]1(C)O | rep main protease | reporter gene (mKate2), inhibitor | – | 20 µM | – | inhibition | -1.46% |
| O=C1NCc2ccc(C(=O)N3CCC[C@@H]([C@H]4CCN(C(=O)c5cn[nH]c(=O)c5)C4)C3)cc2N1 | rep main protease | enzyme activity, inhibitor | – | 5 µM, run 1 | – | inhibition | 8.2% |
| CC[C@H](C)[C@H](NC(=O)[C@H](CC(C)C)NC(=O)[C@H](Cc1c[nH]c2ccccc12)NC(=O)[C@H](CCC(N)=O)NC(=O)[C@@H](NC(=O)[C@H](Cc1ccccc1)NC(=O)[C@H](C)NC(=O)[C@H](CCCCNC(=O)COCCOCCNC(=O)COCCOCCNC(=O)CC[C@H](NC(=O)CCCCCCCCCCCCCCCCCCC(=O)O)C(=O)O)NC(=O)[C@H](CCC(N)=O)NC(=O)[C@H](C)NC(=O)[C@@H](NC(=O)[C@H](CCCCN)NC(=O)[C@H](CC(=O)O)NC(=O)[C@H](CC(C)C)NC(=O)C(C)(C)NC(=O)[C@@H](NC(=O)[C@H](CO)NC(=O)[C@H](Cc1ccc(O)cc1)NC(=O)[C@H](CC(=O)O)NC(=O)[C@H](CO)NC(=O)[C@@H](NC(=O)[C@H](Cc1ccccc1)NC(=O)[C@@H](NC(=O)CNC(=O)[C@H](CCC(=O)O)NC(=O)C(C)(C)NC(=O)[C@@H](N)Cc1ccc(O)cc1)[C@@H](C)O)[C@@H](C)O)[C@@H](C)CC)[C@@H](C)CC)C(C)C)C(=O)N[C@@H](C)C(=O)NCC(=O)NCC(=O)N1CCC[C@H]1C(=O)N[C@@H](CO)C(=O)N[C@@H](CO)C(=O)NCC(=O)N[C@@H](C)C(=O)N1CCC[C@H]1C(=O)N1CCC[C@H]1C(=O)N1CCC[C@H]1C(=O)N[C@@H](CO)C(N)=O | – | – | healthy subjects | all MAD doses | – | subjects with catheter site erythema | 14.3% |
| C[C@@H]1O[C@@H](O[C@@H]2[C@@H](O)[C@H](OCCc3ccc(O)c(O)c3)O[C@H](CO)[C@H]2OC(=O)/C=C/c2ccc(O)c(O)c2)[C@H](O)[C@H](O)[C@H]1O | Spike glycoprotein | binding, BLI | – | – | – | koff | 0.00157 s⁻¹ |
| CCc1c(C(=O)C(N)=O)c2c(OCC(=O)O)cccc2n1Cc1ccccc1 | Daboia russelii venom phospholipase A2 | enzyme activity, inhibitor | PB population | 1 µM, with: NOB substrate | relative to: venom alone | remaining activity | 85% and 90% |
| Cn1cnc(Cn2c(=O)[nH]/c(=N\c3cc4cn(C)nc4cc3Cl)n(Cc3cc(F)c(F)cc3F)c2=O)n1 | – | – | human, moderate renal impairment | oral, 375 mg, treatment-related dry mouth, Mild severity | – | patients with adverse event | 0% |
| C=C(CC[C@@H](C(=O)O)[C@H]1[C@H](O)C[C@@]2(C)C3=CC[C@H]4C(C)(C)C(=O)CC[C@]4(C)C3=CC[C@]12C)C(C)C | rep main protease | reporter gene (mKate2), inhibitor | – | 20 µM | – | inhibition | 0.51% |
| O=C(NC[C@H](NC(=O)c1cncc2sccc12)c1ccc2ccccc2c1)c1cocn1 | rep main protease | enzyme activity | – | 5 µM | – | inhibition | 19.3% |
| CO[C@H]1C[C@@H]2CC[C@@H](C)[C@@](O)(O2)C(=O)C(=O)N2CCCC[C@H]2C(=O)O[C@H]([C@H](C)C[C@@H]2CC[C@@H](O)[C@H](OC)C2)CC(=O)[C@H](C)/C=C(\C)[C@@H](O)[C@@H](OC)C(=O)[C@H](C)C[C@H](C)/C=C/C=C/C=C/1C | Spike glycoprotein | binding, BLI | – | – | – | kon | 2170 M⁻¹ s⁻¹ |
| O=C(O)c1cc(OCCNC(=O)c2cc(OCc3cn([C@@H]4O[C@H](CO)[C@H](O[C@H]5O[C@H](CO)[C@H](O)[C@H](O)[C@H]5O)[C@H](O)[C@H]4O)nn3)cc(OCc3cn([C@@H]4O[C@H](CO)[C@H](O[C@H]5O[C@H](CO)[C@H](O)[C@H](O)[C@H]5O)[C@H](O)[C@H]4O)nn3)c2)cc(OCCNC(=O)c2cc(OCc3cn([C@@H]4O[C@H](CO)[C@H](O[C@H]5O[C@H](CO)[C@H](O)[C@H](O)[C@H]5O)[C@H](O)[C@H]4O)nn3)cc(OCc3cn([C@@H]4O[C@H](CO)[C@H](O[C@H]5O[C@H](CO)[C@H](O)[C@H](O)[C@H]5O)[C@H](O)[C@H]4O)nn3)c2)c1 | Shiga toxin subunit B (stxB, Shigella dysenteriae, UniProt Q7BQ98) | – | Escherichia coli | – | – | Hill slope | -1.13 |
| CC1(C)Cc2ccc(C(=O)N3CCCC[C@H](C4CN(C(=O)c5cncc(O)c5)C4)C3)cc2O1 | rep main protease | enzyme activity, inhibitor | – | 5 µM | – | inhibition | 14.4% |
| Cc1cc(C)c(CNC(=O)c2cc(Cl)c3c(c2C)O[C@@](C)([C@H]2CC[C@H](N(C)C)CC2)O3)c(=O)[nH]1 | – | – | human, relapsed/refractory NHL | concentration not given, all TEAEs, grade 3 | – | COVID-19 pneumonia incidence | 1% |
| CN1c2ccccc2C(=O)Nc2cnc(Nc3ccc(N4CCC(O)CC4)cc3)nc21 | rep main protease | viral replication, Gluc reporter | SARS-CoV-2 | 20 µM | – | inhibition | 2.98% |
| CC[C@H](C)[C@H](NC(=O)[C@@H]1CCCN1C(=O)[C@H](C)NC(=O)[C@@H]1CSSC[C@@H]2NC(=O)[C@H](CC(=O)O)NC(=O)[C@H](CCCNC(=N)N)NC(=O)[C@H](CCC(=O)O)NC(=O)[C@H](CCCNC(=N)N)NC(=O)CNC(=O)[C@H](CC(=O)O)NC(=O)[C@@H]3CSSC[C@H](NC(=O)[C@H](CCC(=O)O)NC(=O)[C@H](CC(C)C)NC(=O)CNC(=O)[C@H](C)NC(=O)[C@H](CSSC[C@H](NC(=O)[C@H](Cc4ccccc4)NC(=O)[C@@H](N)CO)C(=O)N[C@@H](CC(C)C)C(=O)N[C@@H](C(C)C)C(=O)N[C@@H](CCCCN)C(=O)N[C@@H](Cc4c[nH]c5ccccc45)C(=O)N[C@@H](CCCCN)C(=O)N[C@@H](CCC(N)=O)C(=O)N3)NC2=O)C(=O)N[C@@H](Cc2c[nH]c3ccccc23)C(=O)N[C@@H](CCCCN)C(=O)N[C@@H](CCCNC(=N)N)C(=O)N[C@@H](CO)C(=O)NCC(=O)N[C@@H](CC(N)=O)C(=O)N[C@@H](CCCCN)C(=O)N[C@@H](CO)C(=O)N[C@@H](CO)C(=O)N[C@@H](C(C)C)C(=O)N1)C(=O)N[C@H](C(=O)O)[C@@H](C)O | ASIC1 (Homo sapiens, UniProt P78348) | binding, SPR | – | pH 7.5 | – | koff | 0.184 s⁻¹ |
| C[C@H]1c2cccc(O)c2C(=O)C2=C(O)[C@]3(O)C(=O)C(C(N)=O)=C(O)[C@@H](N(C)C)[C@@H]3[C@@H](O)[C@@H]21 | rep main protease | reporter gene (Gaussia luciferase), inhibitor | – | 20 µM | – | inhibition | 3.89% |
| CN1CCCC2(C1)CN(Cc1cccnc1)c1ccc(C(=O)NCC3CCCCC3)cc12 (centres unmarked) | SARS-CoV-2 | cytopathic effect, cell-based CPE | USA_WA1/2020 | round 2, 5-point dilution | – | AC50 | 14.1 µM |

Excerpt of the above:
| Compound | tested on | assay | system | conditions | scale | endpoint | value |
| --- | --- | --- | --- | --- | --- | --- | --- |
| Cn1cnc(Cn2c(=O)[nH]/c(=N\c3cc4cn(C)nc4cc3Cl)n(Cc3cc(F)c(F)cc3F)c2=O)n1 | – | – | human, moderate renal impairment | oral, 375 mg, treatment-related dry mouth, Mild severity | – | patients with adverse event | 0% |
